Assay results pooled from the literature.
Each numbered part is a random draw from the data of one study; scales do not carry over between parts. Values joined by “and” are separate records of one study, mostly repeats; a detail may differ. ± gives the spread as reported.

Series 1 — cell line: MDA-MB-231; technique: qRT-PCR; time: 6 h; setting: unit not given; endpoint: mRNA level
Compound: CCN(CC)CC(=O)N1CCN(c2nc(NCc3nc4cc(Cl)c(Cl)cc4[nH]3)c3ncn(CC)c3n2)CC1
measured: FANCI; 0.05 µM; relative to: DMSO: 0.402 and 0.455 and 0.449
measured: BRCA1; 50 nM; relative to: untreated: 0.299
measured: SMARCC2; 50 nM; relative to: untreated: 0.62
measured: SMARCC2; 0.05 µM; relative to: DMSO: 0.632 and 0.617 and 0.611
measured: ATM; 0.05 µM; relative to: DMSO: 0.419 and 0.388 and 0.406
measured: ATR; 50 nM; relative to: untreated: 0.406

Series 2 — effect on: enzyme activity; action: inhibitor; technique: TR-FRET; tested at: 33 µM; endpoint: inhibition
Target: E3 ubiquitin-protein ligase NEDD4 (Homo sapiens, UniProt P46934)
Construct (P46934 938-1319, limits assumed): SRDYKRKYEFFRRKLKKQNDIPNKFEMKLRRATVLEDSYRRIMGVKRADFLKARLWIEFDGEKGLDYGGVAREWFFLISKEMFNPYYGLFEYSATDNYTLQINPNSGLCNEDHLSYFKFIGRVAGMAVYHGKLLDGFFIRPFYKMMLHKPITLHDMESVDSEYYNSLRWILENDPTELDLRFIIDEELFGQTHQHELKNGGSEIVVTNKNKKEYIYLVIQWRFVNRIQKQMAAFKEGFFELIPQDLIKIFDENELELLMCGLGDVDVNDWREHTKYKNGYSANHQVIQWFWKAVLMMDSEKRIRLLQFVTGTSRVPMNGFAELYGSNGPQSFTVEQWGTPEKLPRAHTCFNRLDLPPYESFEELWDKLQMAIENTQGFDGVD
CN(C)C(=O)/C=C/CNCCCN1c2ccccc2CCc2ccc(Cl)cc21.Cl: 23.3%
CNCCCN1c2ccccc2CCc2ccc(Cl)cc21: 0%
Cl.NC(=O)/C=C/CNCCCN1c2ccccc2CCc2ccc(Cl)cc21: 34.2%
COC(=O)/C=C/C(=O)NCCCN1c2ccccc2CCc2ccc(Cl)cc21: < 10%
C=CC(=O)NCCCN1c2ccccc2CCc2ccc(Cl)cc21: < 10%

Series 3 — cell line: U-87 MG; tested at: concentration not given; relative to: DMSO; endpoint: log2 fold change
SMILES: CCN1/C(=C/C=C2\CCCC(/C=C/C3=[N+](CC)c4ccccc4C3(C)C)=C2NCCCCCCCCN2CCC(Nc3nc4ccccc4n3Cc3ccc(F)cc3)CC2)C(C)(C)c2ccccc21
measured: LDHA mRNA: -1.12
measured: ZMYM5 mRNA: 0.803
measured: CD248 mRNA: -7.01
measured: INPP5A mRNA: 1.6
measured: MAB21L1 mRNA: -2.46
measured: EXPH5 mRNA: 1.61
measured: ARL14EP mRNA: 1.01
measured: CCDC28B mRNA: -1.57
measured: RPA1 mRNA: -0.877
measured: TOP2A mRNA: -2.12
measured: PLS1 mRNA: 1.44
measured: IER5L mRNA: -1.79

Series 4 — endpoint: remaining binding
SMILES: COc1cc(-c2nc3ccc(C(=O)NCCCN(C)C)cc3n2C2CCC2)cc(OC)c1OC
Macrophage-stimulating protein receptor (MST1R, Homo sapiens, UniProt Q04912); binding, competition with immobilised ligand; 1 µM: 100%
G protein-coupled receptor kinase 4 (GRK4, Homo sapiens, UniProt P32298); binding, competition with immobilised ligand; 1 µM: 82%
Cyclin-dependent kinase 11B (CDK11B, Homo sapiens, UniProt P21127); binding, competition with immobilised ligand; 1 µM: 96%
Homeodomain-interacting protein kinase 3 (HIPK3, Homo sapiens, UniProt Q9H422); binding, competition with immobilised ligand; 1 µM: 76%
Epidermal growth factor receptor (EGFR, Homo sapiens, UniProt P00533, del752-759); binding, competition with immobilised ligand; 1 µM: 86%
Serine/threonine-protein kinase 26 (STK26, Homo sapiens, UniProt Q9P289); binding, competition with immobilised ligand; 1 µM: 100%
Receptor tyrosine-protein kinase erbB-2 (ERBB2, Homo sapiens, UniProt P04626); binding, competition with immobilised ligand; 1 µM: 100%
Mitogen-activated protein kinase kinase kinase kinase 2 (MAP4K2, Homo sapiens, UniProt Q12851); binding, competition with immobilised ligand; 1 µM: 86%
Serine/threonine-protein kinase 36 (STK36, Homo sapiens, UniProt Q9NRP7); binding, competition with immobilised ligand; 1 µM: 93%
Protein kinase C iota type (PRKCI, Homo sapiens, UniProt P41743); binding, competition with immobilised ligand; 1 µM: 86%
FLT3 ITD F691L human; KINOMEscan; 1000 nM; relative to: DMSO control: 73%

Series 5 — effect on: thermal unfolding; technique: differential scanning fluorimetry; tested at: 5.5 µM; reading: higher = more unfolded; endpoint: SYPRO Orange fluorescence
SMILES: C[C@@H]1CN(c2ccc(-c3cc(C(=O)NCCOCCOCCOCCOCCOCCOCCNC(=O)/C=C/c4[nH]cc(C(=O)N[C@@H](CC(N)=O)c5ccc(F)c(Cl)c5)c4-c4ccc(Cl)cc4F)ccc3F)cc2NC(=O)c2ccc(F)cc2C(F)(F)F)C[C@H](C)N1C
WDR5: WD repeat-containing protein 5 (WDR5, Homo sapiens, UniProt P61964)
DCAF1: DDB1- and CUL4-associated factor 1 (DCAF1, Homo sapiens, UniProt Q9Y4B6)
WDR5; 80.81 °C: 65600 a.u.
DCAF1; 77.21 °C: 41900 a.u.
DCAF1; 31.8 °C: 8940 a.u.
WDR5; 54.41 °C: 16900 a.u.
DCAF1; 28.4 °C: 8020 a.u.
DCAF1; 34.4 °C: 9670 a.u.
DCAF1; 58.21 °C: 39500 a.u.
DCAF1; 46.8 °C: 15600 a.u.
DCAF1; 59.81 °C: 46500 a.u.
WDR5; 42 °C: 14300 a.u.
DCAF1; 44.2 °C: 14200 a.u.

Series 6 — endpoint: mRNA level ratio
Compound: COCC1CC2C(CCC3C(O)CCC32)c2ccc(O)cc21 (centres unmarked)
PANC-1; DNA microarray, measured: GAPDH; 25 µM; relative to: untreated cells: 0.62 and 0.617 and 0.619 and 0.612
PANC-1; microarray, measured: CCL11; 100 µM; relative to: untreated: 345
A549; microarray, measured: OLIG2; 25 µM; relative to: untreated: 1
SK-OV-3; microarray, measured: OLIG2; 100 µM; relative to: untreated: 1
SK-OV-3; DNA microarray, measured: MCM10; 100 µM; relative to: untreated cells: 0.732
A549; microarray, measured: RFC3; 25 µM; relative to: untreated: 1.3
A549; DNA microarray, measured: KIF20A; 100 µM; relative to: untreated cells: 0.805 and 0.811 and 0.817 and 0.861 and 0.852
A549; microarray, measured: CDC25B; 25 µM; relative to: untreated: 0.914
A549; microarray, measured: AURKA; 100 µM; relative to: untreated: 0.945
PANC-1; microarray, measured: RFC3; 100 µM; relative to: untreated: 1.73
A549; DNA microarray, measured: ACTB; 25 µM; relative to: untreated cells: 1.02 and 1.03 and 1.05
PANC-1; DNA microarray, measured: KIF20A; 25 µM; relative to: untreated cells: 1.45 and 1.49 and 1.48 and 1.52 and 1.5

Single results of other studies
MPO: Myeloperoxidase (MPO, Homo sapiens, UniProt P05164)
SLC6A19: Sodium-dependent neutral amino acid transporter B(0)AT1 (SLC6A19, Homo sapiens, UniProt Q695T7)
Cc1ccc(O)c(C)c1-c1cnc2[nH]c(-c3cnc(N4CCC(CN5CCN(c6ccc(NC7CCC(=O)NC7=O)cc6F)CC5)CC4)nc3)cc2c1C#N (centres unmarked)
AUC(0-last) (Beagle dog, male, plasma; oral, 5 mg/kg): 1170 ng·h/mL

Cc1ncsc1-c1ccc(C2(NC(=O)C3CC(O)CN3C(=O)C(NC(=O)c3ccc(COc4c(-c5c(C)c(F)cc6[nH]ncc56)c(C5CC5)cc5c(N6CC7CC6CN7)nc(OC6CCOCC6)nc45)cc3)C(C)(C)C)CC2)cc1 (centres unmarked)
kon (von Hippel-Lindau disease tumor suppressor, with Elongin B/C (VHL, Homo sapiens, UniProt P40337); SPR, single-cycle; immobilized VCB complex; binary, geometric mean): 31100 M⁻¹ s⁻¹

Cc1nc2c([nH]1)c(=O)[nH]c(=S)n2Cc1cccc(OC/C(=C/F)CN)c1
inhibition (MPO; enzyme activity, inhibitor, fluorescence; 1.667 µM): 76.6% and 69.1%

Cc1ccc(O)c(C)c1-c1cnc2[nH]c(-c3cnc(N4CCC5(CC4)CC(N4CCN(c6ccc(N[C@H]7CCC(=O)N(C)C7=O)cc6F)CC4)CO5)nc3)cc2c1C#N (single isomer, unassigned)
degradation (Membrane-associated tyrosine- and threonine-specific cdc2-inhibitory kinase (PKMYT1, Homo sapiens, UniProt Q99640); degrader, automated immunoblot (Jess); 0.46 nM, 24 h): 18.4%

Cc1cc(OCC(=O)NC(C)C)ccc1I
IC50 (SLC6A19; inhibitor, FLIPR membrane potential; CHO-BC; together with: 1.5 mM L-leucine): 230 ± 60 nM

CS(=O)(=O)c1ccc(OC/C(=C/F)CN)cc1.Cl
inhibition (Amine oxidase [flavin-containing] B (MAOB, Homo sapiens, UniProt P27338); enzyme activity, inhibitor; 13.7 nM): -0.779% and 5.84% and 8.47%

CCN1CCN(Cc2ccc(COc3c(-c4c(C)c(F)cc5[nH]ncc45)c(C4CC4)cc4c(N5C[C@@H]6C[C@H]5CN6)nc(OC5CCOCC5)nc34)cc2)C(=O)C1
ERK1/2 phosphorylation (A-375 (KRAS wild type); in-cell ELISA, measured: phospho-ERK1/2; 3 µM, 2 h): 107% and 125% and 118% and 105%

Cc1ccc(O)c(C)c1-c1cnc2[nH]c(-c3cnc(N)nc3)cc2c1C#N
number of kinases bound (KINOMEscan; 403 non-mutant kinase panel; 1000 nM, percent of control below 1): 1

Cc1ncsc1-c1ccc(C2(NC(=O)C3CC(O)CN3C(=O)C(NC(=O)c3ccc(COc4c(-c5c(C)c(F)cc6[nH]ncc56)c(C5CC5)cc5c(N6CC7CC6CN7)nc(OC6CCOCC6)nc45)cc3)C(C)C)CC2)cc1 (centres unmarked)
DC50 (GTPase KRas (KRAS, Homo sapiens, UniProt P01116, G12D); degrader, In-Cell ELISA; AsPC-1 (KRAS G12D); 24 h): 236 nM and 111 nM and 224 nM

Cc1cc(NCC(=O)NC(C)C)ccc1Br
normalised transport activity (SLC6A19; inhibitor, FLIPR membrane potential; CHO-BC cells; 0.001 µM): 1

NC/C(=C\F)COc1ccc(Cn2c(=S)[nH]c(=O)c3[nH]cnc32)cc1
inhibition (MPO; enzyme activity, inhibitor, fluorescence; 1.5 nM): -3.07%

Cc1ccc(O)c(C)c1-c1cnc2[nH]c(-c3cnc(N4CC5(CC(CN6CCN(c7ccc(NC8CCC(=O)NC8=O)cc7F)CC6)C5)C4)nc3)cc2c1C#N (centres unmarked)
phospho-CDK1 (Thr14) level (HCC1569; CDK1 Thr14 phosphorylation, in-cell western; 4.12 nM; lower = stronger inhibition): 39.6 a.u. and 33.6 a.u.

C=C(CN)COc1cccc(Cn2c(=S)[nH]c(=O)c3[nH]cnc32)c1
inhibition (Amine oxidase [copper-containing] 3 (AOC3, Homo sapiens, UniProt Q16853); H2O2 production, inhibitor, Amplex Red; 0.0412 µM): 20.9 % Inhibition and -0.545 % Inhibition

CCCNC(=O)COc1ccc(I)c(C)c1
normalised transport activity (SLC6A19; inhibitor, FLIPR membrane potential; CHO-BC cells; 0.001 µM): 0.942

For quick reference, copied from above (single results of other studies):
Cc1ccc(O)c(C)c1-c1cnc2[nH]c(-c3cnc(N4CCC(CN5CCN(c6ccc(NC7CCC(=O)NC7=O)cc6F)CC5)CC4)nc3)cc2c1C#N (centres unmarked)
AUC(0-last) (Beagle dog, male, plasma; oral, 5 mg/kg): 1170 ng·h/mL

CCCNC(=O)COc1ccc(I)c(C)c1
normalised transport activity (SLC6A19; inhibitor, FLIPR membrane potential; CHO-BC cells; 0.001 µM): 0.942

Cc1ccc(O)c(C)c1-c1cnc2[nH]c(-c3cnc(N4CCC5(CC4)CC(N4CCN(c6ccc(N[C@H]7CCC(=O)N(C)C7=O)cc6F)CC4)CO5)nc3)cc2c1C#N (single isomer, unassigned)
degradation (Membrane-associated tyrosine- and threonine-specific cdc2-inhibitory kinase (PKMYT1, Homo sapiens, UniProt Q99640); degrader, automated immunoblot (Jess); 0.46 nM, 24 h): 18.4%

Cc1cc(NCC(=O)NC(C)C)ccc1Br
normalised transport activity (SLC6A19; inhibitor, FLIPR membrane potential; CHO-BC cells; 0.001 µM): 1

C=C(CN)COc1cccc(Cn2c(=S)[nH]c(=O)c3[nH]cnc32)c1
inhibition (Amine oxidase [copper-containing] 3 (AOC3, Homo sapiens, UniProt Q16853); H2O2 production, inhibitor, Amplex Red; 0.0412 µM): 20.9 % Inhibition and -0.545 % Inhibition

Cc1ccc(O)c(C)c1-c1cnc2[nH]c(-c3cnc(N4CC5(CC(CN6CCN(c7ccc(NC8CCC(=O)NC8=O)cc7F)CC6)C5)C4)nc3)cc2c1C#N (centres unmarked)
phospho-CDK1 (Thr14) level (HCC1569; CDK1 Thr14 phosphorylation, in-cell western; 4.12 nM; lower = stronger inhibition): 39.6 a.u. and 33.6 a.u.

Cc1ncsc1-c1ccc(C2(NC(=O)C3CC(O)CN3C(=O)C(NC(=O)c3ccc(COc4c(-c5c(C)c(F)cc6[nH]ncc56)c(C5CC5)cc5c(N6CC7CC6CN7)nc(OC6CCOCC6)nc45)cc3)C(C)(C)C)CC2)cc1 (centres unmarked)
kon (von Hippel-Lindau disease tumor suppressor, with Elongin B/C (VHL, Homo sapiens, UniProt P40337); SPR, single-cycle; immobilized VCB complex; binary, geometric mean): 31100 M⁻¹ s⁻¹

Cc1nc2c([nH]1)c(=O)[nH]c(=S)n2Cc1cccc(OC/C(=C/F)CN)c1
inhibition (MPO; enzyme activity, inhibitor, fluorescence; 1.667 µM): 76.6% and 69.1%

CCN1CCN(Cc2ccc(COc3c(-c4c(C)c(F)cc5[nH]ncc45)c(C4CC4)cc4c(N5C[C@@H]6C[C@H]5CN6)nc(OC5CCOCC5)nc34)cc2)C(=O)C1
ERK1/2 phosphorylation (A-375 (KRAS wild type); in-cell ELISA, measured: phospho-ERK1/2; 3 µM, 2 h): 107% and 125% and 118% and 105%
